Results of several laboratories.
Each numbered part is a random draw from the data of one study; scales do not carry over between parts. Substitutions count along the parent as printed.

Series 1
Target: TAR DNA-binding protein 43, full length, His tag (TARDBP, Homo sapiens, UniProt Q13148, residues 1-414)
Method: RNA Bind-n-Seq
Form: RNA
Sample: in vitro
Tested at: 20 nM
Setting: 6-mer, flanks averaged, single round
Together with: 150 mM LiCl
Relative to: input library
Reading: higher = stronger binding
Quantity: 6-mer enrichment (R)
UGAGAG: 1.16
GCGACA: 0.89
AGAAUG: 1.07
UUGUUC: 1.06
AUAUCA: 0.851
UAACGA: 0.802
AGAAUA: 0.935
CCUAUC: 0.897

Series 2
Target: RNA binding protein fox-1 homolog 2, RRM domain, GST-SBP tag (RBFOX2, Homo sapiens, UniProt O43251-10, residues 100-194)
Method: RNA Bind-n-Seq
Form: RNA
Sample: in vitro
Tested at: 365 nM
Setting: natural RNA segment, single round, ends assumed
Relative to: no-protein control
Reading: higher = stronger binding
Quantity: RBNS enrichment (R)
Constant ends, left off below: GGGAGUUCUACAGUCCGACGAUC … UGGAAUUCUCGGGUGCCAA
Target sequence (chain): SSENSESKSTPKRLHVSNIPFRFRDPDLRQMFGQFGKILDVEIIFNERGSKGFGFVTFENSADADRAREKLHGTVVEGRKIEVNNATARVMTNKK
UAAUGAGUUAUUUUACUUUUUUUCAUAUUAGGCCUUUGAAAUUCAGUGUGUAUUAAACACAUCUCAAUUCAAACCAUCACCAUAUUUCAAGUCUUUGUAGCCAAAUGUGA: 0.442
GUGGAAGGAGGGUAUGAUGCAGGUGCCAGAUUUGGAGCUGGGGCUACUGCUGGCAACAUUCCUGCUCCACCUCCUGGAUGCCCUCCCAAUGCUGCUCAGCUUGCAGUCAU: 0.385
AUCAGUGUUAAUUCUAAAUCCUUGAUCCUCUGCAAUGUGCUUGAAAACACAAACCUUUUGGGUUAAAAGCUUUAACAUCUAUUAGGAAGAAUUUGUCCUGUGGGUUUGGA: 0.323
CGCCUGGCUAGCGCUGCCCCUGCUGCUGCUGCCGCGCCACCCUUGGGAACCACUUCCCGAGCUUAUGUGUAUAUAAAUAGUUAUUUAUUAACAUCAUUGGUCAUUUUUAA: 0.268
UUGGGAUCUCUGCUGUGCCCUUCUCGGGCUUCCAGACCAGGUGUAGCAAAUGAAAAAGUGCAGUUAAUUCAAGAACAGGAAUCCCUGUGUCCUUGCUGGGAUUUCCUUUU: 0.498
AGGAACAAUCACAGCUAUGUGUGACUUUCCUUUUCCCACCUCACCUUGAUGUAGGUGUUUCAAGUGAACUUUAGACCAACAGUUGCCCAGUGACCUGCUAAAAAGUCAAC: 0.223
GCUUCUUUGAUGAAGGAGGAGAGAUGAAGAGUUGCUUGUUUUGCAGAAUUCUAUAGCAUGAAGGUUAACCUUGUCUCCAUUCAUGGGGGUUUAAUUGCCCUAUUGCUCAA: 6.32
UCCCUCCAACGUGGUCCUCUUCCUGGCUGGAGGUGCUGGAUUCUGACUGCCAUCUUGCUCCAUGGUGGCUCUUCUGGCCUGGGACCCGGUCCACAGGAAGGGCUAGGAGC: 0.318

Series 3
Target: Ras GTPase-activating protein-binding protein 1, RRM domain (G3BP1, Homo sapiens, UniProt Q13283)
Sequence of UniProt Q13283 (whole entry, looked up): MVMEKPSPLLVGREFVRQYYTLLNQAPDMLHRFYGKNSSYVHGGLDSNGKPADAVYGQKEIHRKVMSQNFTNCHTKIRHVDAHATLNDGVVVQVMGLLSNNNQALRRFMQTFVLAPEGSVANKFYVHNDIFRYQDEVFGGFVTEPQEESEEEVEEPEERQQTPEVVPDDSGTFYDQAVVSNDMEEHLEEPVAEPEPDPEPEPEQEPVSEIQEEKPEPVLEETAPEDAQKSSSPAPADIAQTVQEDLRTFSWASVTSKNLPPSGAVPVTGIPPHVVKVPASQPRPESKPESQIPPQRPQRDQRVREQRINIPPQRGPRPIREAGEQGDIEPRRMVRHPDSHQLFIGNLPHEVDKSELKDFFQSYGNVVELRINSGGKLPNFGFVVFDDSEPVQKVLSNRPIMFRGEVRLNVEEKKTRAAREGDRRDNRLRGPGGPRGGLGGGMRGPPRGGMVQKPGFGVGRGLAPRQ
Method: RNA Bind-n-Seq
Form: RNA
Sample: in vitro
Tested at: 1 µM
Setting: whole 134-nt RNA, ends assumed
Together with: 150 mM KCl
Relative to: input library
Reading: higher = stronger binding
Quantity: log2 enrichment
Constant ends, left off below: GGGAGUUCUACAGUCCGACGAUC … UGGAAUUCUCGGGUGUCAAGG
UCAAGUCCUGUGCUACACAUCGUAUGUACCGAAUCGGCCCGGGCCCGGGCCCGGGAAAGUAUUAUGUUACGCCGUUCGGAUCUGCACUUC: -0.265
ACCAUGCAGGUGGGCAUAAAUGGGAAGUGGGGCAAGGGGGGGAUAGGGAGGGGGGUAACACUUUGGGAACAGGUGGUCCCAGGUCGUUUC: -0.471
UCCAGUCUAGCUUUGGAGAAGCGCCAACCUGCUCACUGCCGCCGACCAGACUGCAUGUUUGGUUGUACUUGUUUGAAAAGAAAAGUUGUA: -0.0802
UAACUUUAGAGGAGGAUCUGAUGGAUAUGGCAGUGGACGUGGAUUUGGGGAUGGCUAUAAUGGGUGUGGAGGAGGACCUGGAGGUGGCAA: -0.212
GUCCUGUGCUACACAUCGUAUGUACCGAAUCGGAAAAAGGGGAAAAAGGGGAAAAAGGAAAGUAUUAUGUUACGCCGUUCGGAUCUGCAC: 0.0144
ACCAUGCAGGUGGGCAUCUCUGGGAAGUGGGGCAAGGGGGGGAUAGGGAGGGGGGUAACACUUUGGGAACAGGUGGUCCCAGGUCGUUUC: -0.351
UGGCCCUGGUGGCGUGCGGGGAGGAAGAGGUGGCCUCAUGGAUCGUGGUGGUCCCGGUGGAAUGUUCAGAGGUGGCCGUGGUGGAGACAG: 0.935
UGGCCCUGGUGGCAUGCGGGGAGGAAGAGGUGGCCUCAUGGAUCGUGGUGGUCCCGGUGGAAUGUUCACAGGUGGCCGUGGUGGAGACAG: 1.89

Single results of other studies
Starting sequence: viral docking peptide; YKVKRRLVFGADD
YKVKRRLVFNADD [G10N]  normalised enrichment score (CCNB3, cyclin fold, Cln2 fusion (human); yeast growth competition, sequencing; yeast; strong parent motif; relative to: not given, higher = stronger binding): 2

For quick reference, copied from above (series 1):
UGAGAG: 1.16
